Published values gathered from unrelated publications.
Parts stem from different laboratories: compare values within a part only. Changes are numbered by the printed parent chain.

Sample 1
Variant: V118A
Target: ABI1, truncated, D143A, DHFR fusion (Arabidopsis thaliana)
Technique: DHFR PCA, deep sequencing
Medium: yeast
Setting: methotrexate growth selection, single substitutions
Relative to: wild-type fitted maximum
Reading: higher = stronger binding
Parent: PYL1, truncated, DHFR fusion (Arabidopsis thaliana); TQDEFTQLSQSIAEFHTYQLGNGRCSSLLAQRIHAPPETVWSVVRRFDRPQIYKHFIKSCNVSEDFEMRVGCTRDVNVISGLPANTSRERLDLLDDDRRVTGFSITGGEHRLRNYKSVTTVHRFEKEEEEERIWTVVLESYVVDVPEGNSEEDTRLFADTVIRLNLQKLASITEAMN
| with | relative binding score [%] |
| --- | --- |
| (+)-ABA 0.11 µM | 1.82 |
| (+)-ABA 0 µM | 2.03 |
| (+)-ABA 710 µM | 90.2 |
| (+)-ABA 1.4 µM | 15 |
| (+)-ABA 0.39 µM | 16.4 |
| (+)-ABA 2500 µM | 93.1 |

Sample 2
Target: HLA class I histocompatibility antigen, A alpha chain, allele A*80:01 (Homo sapiens, UniProt P04439)
Effect on: peptide-MHC binding
Molecule type: peptide
Concentration: concentration not given
| Molecule | binding |
| --- | --- |
| VVEKQSGLY | active |
| NLFEIEWEE | inactive |
| LPPVVPPLI | inactive |
| FPLWNTEKI | inactive |
| TTILGLLPM | inactive |

Sample 3
Target: UBE2D2 UBC core domain (UniProt P62837)
UniProt P62837, sequence (whole entry, looked up): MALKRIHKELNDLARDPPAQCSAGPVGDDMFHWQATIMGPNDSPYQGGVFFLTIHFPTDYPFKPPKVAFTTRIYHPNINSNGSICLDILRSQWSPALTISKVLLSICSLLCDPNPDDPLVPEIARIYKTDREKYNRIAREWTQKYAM
Technique: yeast two-hybrid
Medium: yeast
Setting: mostly zero background
Relative to: not given
Reading: higher = stronger interaction
B1: RNF208 RING domain (UniProt Q9H0X6); chain SSAAAGEPLECPTCGHSYNVTQRRPRVLSCLHSVCEQCLQILYESCPKYKFISCPTCRRETVLFTDYG
B2: TRAF5 RING domain (UniProt O00463); chain FVERLEERYKCAFCHSVLHNPHQTGCGHRFCQHCILSLRELNTVPICPVDKEVIKSQEVFK
B3: DTX4 RING domain (UniProt Q9Y2E6); chain QKVRHPPDEDCTICMERLTAPSGYKGPQPTVKPDLVGKLSRCGHVYHIYCLVAMYNNGNKDGSLQCPTCKTIYGVKTGTQ
B4: TRIM43 RING domain (UniProt Q96BQ3); chain FSHAFQKELTCVICLNYLVDPVTICCGHSFCRPCLCLSWEEAQSPANCPACREPSPKMDFKT
B5: TRIM24 RING domain (UniProt O15164); chain EAARLNLLDTCAVCHQNIQSRAPKLLPCLHSFCQRCLPAPQRYLMLPAPMLGSAETPPPVPAPGSPVSGSSPFATQVGVIRCPVCSQECAERHII
B6: TRIM5 RING domain (UniProt Q9C035); chain ILVNVKEEVTCPICLELLTQPLSLDCGHSFCQACLTANHKKSMLDKGESSCPVCRISYQPENIRP
| Molecule | lacZ reporter activity |
| --- | --- |
| B1 (RNF208 RING domain) | 0 |
| B2 (TRAF5 RING domain) | 0 |
| B3 (DTX4 RING domain) | 0 |
| PAELEVQASECVVCLEREAQMIFLNCGHVCCCQQCCQPLRTCPLCRQDIAQRLRIY (LRSAM1 RING domain (UniProt Q6UWE0)) | 0 |
| ASLPTSEEDLCPICYAHPISAVFQPCGHKSCKACINQHLMNNKDCFFCKTTIVSVEDWE (RNF123 RING domain (UniProt Q5XPI4)) | 0 |
| B4 (TRIM43 RING domain) | 0 |
| B5 (TRIM24 RING domain) | 0 |
| B6 (TRIM5 RING domain) | 0 |
| VEPSEENSKDCVVCQNGTVNWVLLPCRHTCLCDGCVKYFQQCPMCRQFVQESFALC (CGRRF1 RING domain (UniProt Q99675)) | 0 |

Sample 4
Target: Phosphate system positive regulatory protein PHO4, full length, GST-tagged (PHO4, Saccharomyces cerevisiae, UniProt P07270, residues 1-312)
Technique: competition protein-binding microarray
Molecule type: double-stranded DNA, one strand shown
Medium: in vitro
Concentration: 2 µM
Setting: whole 60-bp probe, lowest competitor level
With: Cbf1 competitor, 0.05 µM
Reading: higher = stronger binding
Constant ends, left off below: … GTCTTGATTCGCTTGACGCTGCTG
Residues (chain): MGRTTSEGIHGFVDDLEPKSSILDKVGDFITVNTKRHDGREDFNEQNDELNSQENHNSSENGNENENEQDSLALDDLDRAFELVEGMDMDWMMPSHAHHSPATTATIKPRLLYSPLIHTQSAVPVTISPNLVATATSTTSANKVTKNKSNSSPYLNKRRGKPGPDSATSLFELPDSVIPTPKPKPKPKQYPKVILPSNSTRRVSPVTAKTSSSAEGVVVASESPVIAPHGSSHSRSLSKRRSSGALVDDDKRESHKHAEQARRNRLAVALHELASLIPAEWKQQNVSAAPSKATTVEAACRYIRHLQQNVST
| Strand | fluorescence intensity [a.u.] |
| --- | --- |
| ACCGCTGAAACCAAACATGTGATGAATTGGTCAACA | 9670 |
| CTTCTGTAAATTTGGAAAGTGGGTGGACGCGCCCCG | 3580 |
| GCGAGAATTTGCACACATGTGACGCTGAATGTATAT | 11100 |
| AAATTACTAAGTTGAGTGGTGGGTGACGCCGTATGA | 4210 |
| TCTTCTAGGAATTAGCACGTGTTTTGGTAACGCACC | 19400 |
| CTAACGAAGGTTTTTCACGTGTCGTACAAGCCAAGT | 14500 |
| TGAAGTGGGAAGGAAGCATTTAGTTCGTGTAGGCTG | 4620 |
| GCAACGCCCCCTTCCCACGTGGTCTTCTCCCTCTCC | 13500 |

Repeated from above (sample 2):
| Molecule | binding |
| --- | --- |
| NLFEIEWEE | inactive |
| LPPVVPPLI | inactive |
